Experimental data of several laboratories.
Protocols differ between the studies behind these lines.
Organism: Escherichia coli

SMILES | assay | system | setting | MIC
CN[C@H](CC(C)C)C(=O)N[C@H]1C(=O)N[C@@H](CC(N)=O)C(=O)N[C@H]2C(=O)N[C@H]3C(=O)N[C@H](C(=O)N[C@H](C(=O)O)c4cc(O)cc(O)c4-c4cc3ccc4O)[C@H](O)c3ccc(c(Cl)c3)Oc3cc2cc(c3O[C@@H]2O[C@H](CO)[C@@H](O)[C@H](O)[C@H]2O[C@H]2C[C@](C)(NCc3ccc(OCc4cn(CCCCC(=O)N[C@H](C(=O)N[C@@H](CCN)C(=O)N[C@H]5CCNC(=O)[C@H]([C@@H](C)O)NC(=O)[C@H](CCN)NC(=O)[C@H](CCN)NC(=O)[C@H](CC(C)C)NC(=O)[C@@H](CC(C)C)NC(=O)[C@H](CCN)NC5=O)[C@@H](C)O)nn4)c(OC)c3)[C@H](O)[C@H](C)O2)Oc2ccc(cc2Cl)[C@H]1O | broth microdilution | ATCC 25922 | 18 to 20 h | 16 µg/mL
CCOc1c(NC(=O)c2ccc(NC(=O)c3ccc(NC(=O)[C@H](Cc4c[nH]nn4)NC(=O)c4ccc(NC(=O)/C(C)=C/c5ccc(O)cc5)cc4)cc3)c(OCC)c2O)ccc(C(=O)O)c1O | broth microdilution | DSM 1116 |  | 0.031 µg/mL
O=C(O)c1ccccc(=O)c1O |  | ATCC 35218 |  | > 71.4 µM
COc1c(C)c(OC(=O)c2ccccc2)c(C)c(OC(=O)c2ccccc2)c1C(=O)/C=C/c1ccccc1 | microbial growth, broth dilution | ATCC25922 |  | 2500 µg/mL
COc1cc(C(=O)Nc2ccc(C(=O)O)c(O)c2)ccc1NC(=O)c1ccc(NC(=O)[C@H](Cc2c[nH]nn2)NC(=O)c2ccc(NC(=O)/C(C)=C/c3ccc(O)cc3)cc2)cc1 | broth microdilution | BW25113 |  | 0.125 µg/mL
CCCCCCCC[N+](C)(C)CCCCCCCCCCOc1cc(OCCCCCCCCCC[N+](C)(C)CCCCCCCC)cc(OCCCCCCCCCC[N+](C)(C)CCCCCCCC)c1.[Br-].[Br-].[Br-] |  | MC4100 |  | 16 µM
COc1nc(C(=O)Nc2ccc(C(=O)O)c(O)c2OC)ccc1NC(=O)c1ccc(NC(=O)[C@H](Cc2c[nH]nn2)NC(=O)c2ccc(NC(=O)/C(C)=C/c3ccc(O)cc3)cc2)cc1 | broth microdilution | BW25113 |  | 0.063 µg/mL
C#CCOc1ccc(CN[C@@]2(C)C[C@H](O[C@H]3[C@H](Oc4c5cc6cc4Oc4ccc(cc4Cl)[C@@H](O)[C@@H](NC(=O)[C@@H](CC(C)C)NC)C(=O)N[C@@H](CC(N)=O)C(=O)N[C@H]6C(=O)N[C@H]4C(=O)N[C@H](C(=O)N[C@H](C(=O)N[C@@H](CCCNC(=N)N)C(N)=O)c6cc(O)cc(O)c6-c6cc4ccc6O)[C@H](O)c4ccc(c(Cl)c4)O5)O[C@H](CO)[C@@H](O)[C@@H]3O)O[C@@H](C)[C@H]2O)cc1OC | broth microdilution | ATCC 35218, cation-adjusted Mueller-Hinton broth | 18 to 20 h, 37 °C, 0.002% polysorbate 80 | 8 µg/mL
CCCCCCCCCC(=O)Oc1c(C)c(OC)c2c(/C=C/c3ccccc3)c(CCCCCCCC)c(=O)oc2c1C | microbial growth, broth dilution | ATCC25922 |  | 5000 µg/mL
COC(=O)CNC(=O)c1ccc(NC(=O)c2[nH]c(C)c(Cl)c2Cl)c(N2CCN(C(=O)OC(C)(C)C)CC2)c1 | microbial growth, broth dilution | ATCC25922 |  | > 32 µg/mL
CC[C@H](C)[C@H](NC(=O)[C@@H](CCCNC(=N)N)NC(=O)[C@H](CCCNC(=N)N)NC(=O)[C@@H]1CCCN1C(=O)[C@@H]1CCCN1C(=O)[C@H](CCCCN)NC(=O)[C@@H]1CCCN1C(=O)[C@H](CCCNC(=N)N)NC(=O)[C@@H]1CCCN1C(=O)[C@H](CC(C)C)NC(=O)[C@H](Cc1ccc(O)cc1)NC(=O)[C@@H]1CCCN1C(=O)[C@@H]1CCCN1C(=O)[C@H](CCCCN)NC(=O)[C@H](CC(=O)O)NC(=O)[C@@H](N)C(C)C)C(=O)N[C@@H](Cc1ccc(O)cc1)C(=O)N[C@@H](CC(N)=O)C(=O)N[C@H](CCCNC(=N)N)C(N)=O | broth microdilution | ATCC 25922 | 18 h, 37 °C, 25% MHB2 | 8 µg/mL
CCCCCCn1cc[n+](CCCCCCOc2cc(OCCCCCC[n+]3ccn(CCCCCC)c3)cc(OCCCCCC[n+]3ccn(CCCCCC)c3)c2)c1.[Br-].[Br-].[Br-] |  | MC4100 |  | 0.5 µM
CC[C@H]1OC(=O)[C@H](C)[C@@H](OC(=O)Cc2ccccc2[N+](=O)[O-])[C@H](C)[C@@H](O[C@@H]2O[C@H](C)C[C@H](N(C)C)[C@H]2O)[C@](C)(OC)C[C@@H](C)C(=O)[C@H](C)[C@@H](O)[C@]1(C)O |  | tolC |  | 2 µg/mL
CC1(C)[C@H](NC(=O)/C(=N\OCc2c(Cl)cccc2Cl)c2csc(N)n2)C(=O)N1OS(=O)(=O)O | agar dilution | 16-1, ESBL-producing |  | 0.5 µg/mL
COc1cc(C(=O)Nc2ccc(C(=O)O)c(O)c2OC)ccc1NC(=O)c1ccc(NC(=O)[C@H](Cc2c[nH]nn2)NC(=O)c2ccc(NC(=O)/C(C)=C/c3ccc(O)cc3)cc2)cc1 | broth microdilution | BW25113 |  | 0.125 µg/mL
Cc1nn(C)c2nc(N)[nH]c(=O)c2c1=O | microbial growth, broth dilution | BW25113 | 18 h | 100 µg/mL
C#CCNC(=O)C1(O/N=C(\C(=O)N[C@@H]2C(=O)N(OS(=O)(=O)O)C2(C)C)c2csc(N)n2)CC1 | microbial growth, agar dilution | ATCC25 |  | 4 µg/mL

SMILES | assay | system | setting | MIC
CCC(CC)c1cc(CCN2CCCN(S(=O)(=O)c3cccc4cccnc34)CC2)nc(-c2ccccn2)n1 | microbial growth, broth dilution | ATCC25922 |  | > 64 µg/mL
CC1(C)[C@H](NC(=O)/C(=N\OC2(C(=O)O)CCCC2)c2csc(N)n2)C(=O)N1OS(=O)(=O)O | agar dilution | 16-1, ESBL-producing |  | 0.25 µg/mL
CN[C@H](CC(C)C)C(=O)N[C@H]1C(=O)N[C@@H](CC(N)=O)C(=O)N[C@H]2C(=O)N[C@H]3C(=O)N[C@H](C(=O)N[C@H](C(=O)O)c4cc(O)cc(O)c4-c4cc3ccc4O)[C@H](O)c3ccc(c(Cl)c3)Oc3cc2cc(c3O[C@@H]2O[C@H](CO)[C@@H](O)[C@H](O)[C@H]2O[C@H]2C[C@](C)(NCc3ccc(OCc4cn(CC(=O)N[C@H](C(=O)N[C@@H](CCN)C(=O)N[C@H]5CCNC(=O)[C@H]([C@@H](C)O)NC(=O)[C@H](CCN)NC(=O)[C@H](CCN)NC(=O)[C@H](CC(C)C)NC(=O)[C@@H](CC(C)C)NC(=O)[C@H](CCN)NC5=O)[C@@H](C)O)nn4)c(OC)c3)[C@H](O)[C@H](C)O2)Oc2ccc(cc2Cl)[C@H]1O | broth microdilution | ATCC 25922 | 18 to 20 h | 16 µg/mL
CC[C@H]1OC(=O)[C@H](C)[C@@H](OC(=O)Cc2c(F)cc([N+](=O)[O-])cc2F)[C@H](C)[C@@H](O[C@@H]2O[C@H](C)C[C@H](N(C)C)[C@H]2O)[C@](C)(OC)C[C@@H](C)C(=O)[C@H](C)[C@@H](O)[C@]1(C)O |  | DSM 30083 | with: colistin sulfate at 0.5 x MIC | 0.5 µM
COc1cc(C(=O)O)ccc1NC(=O)c1ccc(NC(=O)c2ccc(NC(=O)[C@H](Cc3c[nH]nn3)NC(=O)c3ccc(NC(=O)/C(C)=C/c4ccc(O)cc4)cc3)cc2)cc1 | broth microdilution | DSM 1116 |  | 0.25 µg/mL
N=C(N)NCCC[C@@H]1NC(=O)[C@H](CCCNC(=N)N)NC(=O)[C@@H](C(c2ccccc2)c2ccccc2)NC(=O)[C@H](Cc2c[nH]c3ccccc23)NC(=O)[C@@H](C(c2ccccc2)c2ccccc2)NC(=O)[C@@H](CCCNC(=N)N)NC(=O)[C@@H](CCCNC(=N)N)NC1=O |  | ATCC 25922 |  | 16 µg/mL
CC[C@H]1OC(=O)[C@H](C)[C@@H](OC(=O)Cc2ccc(Cl)cc2)[C@H](C)[C@@H](O[C@@H]2O[C@H](C)C[C@H](N(C)C)[C@H]2O)[C@](C)(OC)C[C@@H](C)C(=O)[C@H](C)[C@@H](O)[C@]1(C)O |  | tolC |  | 2 µg/mL
C/C(=C\c1ccc(O)cc1)C(=O)Nc1ccc(C(=O)N[C@@H](Cc2c[nH]nn2)C(=O)Nc2ccc(C(=O)Nc3ccc(C(=O)Nc4ccc(C(=O)O)cc4)c(O)c3)cc2)cc1 | broth microdilution | ciprofloxacin-resistant |  | 0.5 µg/mL
COc1cc2c(cc1OC)C1Cc3ccc(OC)c(OC)c3C[NH+]1CC2.[Cl][Fe-]([Cl])([Cl])[Cl] (stereo not shown) |  |  | 24 h, 37 °C | > 1600 µM
COC(=O)CC(C)c1nn(C)c2nc(N)[nH]c(=O)c2c1=O (stereo not shown) | microbial growth, broth dilution | BW25113 | 18 h | > 100 µg/mL
COc1ccc2ccc(O)c(/C=N/[C@H]3CCCC[C@H]3/N=C/c3cc(F)ccc3O)c2c1 | microbial growth, broth dilution |  | clinical isolate | > 40 µM
CCCCCCCC(=O)N[C@@H](CCN)C(=O)N[C@H](C(=O)N[C@@H](CCN)C(=O)N[C@H]1CCNC(=O)[C@H]([C@@H](C)O)NC(=O)[C@H](CCN)NC(=O)[C@H](CCN)NC(=O)[C@H](CCCCCC)NC(=O)[C@@H](Cc2ccccc2)NC(=O)[C@H](CCN)NC1=O)[C@@H](C)O | broth microdilution | ATCC 25922 |  | < 0.125 µg/mL
CC[C@H]1OC(=O)[C@H](C)[C@@H](OC(=O)Cc2ccc([N+](=O)[O-])cc2)[C@H](C)[C@@H](O[C@@H]2O[C@H](C)C[C@H](N(C)C)[C@H]2O)[C@](C)(OC)C[C@@H](C)C(=O)[C@H](C)[C@@H](O)[C@]1(C)O |  | lpxC |  | 32 µg/mL
CCOc1c(NC(=O)c2ccc(NC(=O)[C@H](Cc3c[nH]nn3)NC(=O)c3ccc(NC(=O)/C(C)=C/c4ccc(O)cc4)cc3)cc2)ccc(C(=O)Nc2ccc(C(=O)O)c(O)c2OC)c1O | broth microdilution | ciprofloxacin-resistant |  | 0.25 µg/mL
COc1ccc2ccc(O)c(/C=N/[C@H]3CCCC[C@H]3/N=C/c3cc(C(C)(C)C)cc(C(C)(C)C)c3O)c2c1 | microbial growth, broth dilution |  |  | > 40 µM
COc1nc(C(=O)Nc2ccc(C(=O)O)nc2OC)ccc1NC(=O)c1ccc(NC(=O)[C@H](Cc2c[nH]nn2)NC(=O)c2ccc(NC(=O)/C(C)=C/c3ccc(O)cc3)cc2)cc1 | broth microdilution | ciprofloxacin-sensitive |  | 4 µg/mL
COC(C(N)=O)C(NC(=O)c1ccc(NC(=O)c2ccc(C#N)cc2)cc1)C(=O)Nc1ccc(C(=O)Nc2ccc(C(=O)Nc3ccc(C(=O)O)cc3)c(O)c2OC(C)C)cc1 (stereo not shown) |  | BW25113 ΔtolC |  | 0.08 µg/mL

A few entries again:
SMILES | assay | system | setting | MIC
CN[C@H](CC(C)C)C(=O)N[C@H]1C(=O)N[C@@H](CC(N)=O)C(=O)N[C@H]2C(=O)N[C@H]3C(=O)N[C@H](C(=O)N[C@H](C(=O)O)c4cc(O)cc(O)c4-c4cc3ccc4O)[C@H](O)c3ccc(c(Cl)c3)Oc3cc2cc(c3O[C@@H]2O[C@H](CO)[C@@H](O)[C@H](O)[C@H]2O[C@H]2C[C@](C)(NCc3ccc(OCc4cn(CC(=O)N[C@H](C(=O)N[C@@H](CCN)C(=O)N[C@H]5CCNC(=O)[C@H]([C@@H](C)O)NC(=O)[C@H](CCN)NC(=O)[C@H](CCN)NC(=O)[C@H](CC(C)C)NC(=O)[C@@H](CC(C)C)NC(=O)[C@H](CCN)NC5=O)[C@@H](C)O)nn4)c(OC)c3)[C@H](O)[C@H](C)O2)Oc2ccc(cc2Cl)[C@H]1O | broth microdilution | ATCC 25922 | 18 to 20 h | 16 µg/mL
CC[C@H]1OC(=O)[C@H](C)[C@@H](OC(=O)Cc2c(F)cc([N+](=O)[O-])cc2F)[C@H](C)[C@@H](O[C@@H]2O[C@H](C)C[C@H](N(C)C)[C@H]2O)[C@](C)(OC)C[C@@H](C)C(=O)[C@H](C)[C@@H](O)[C@]1(C)O |  | DSM 30083 | with: colistin sulfate at 0.5 x MIC | 0.5 µM
COc1cc(C(=O)O)ccc1NC(=O)c1ccc(NC(=O)c2ccc(NC(=O)[C@H](Cc3c[nH]nn3)NC(=O)c3ccc(NC(=O)/C(C)=C/c4ccc(O)cc4)cc3)cc2)cc1 | broth microdilution | DSM 1116 |  | 0.25 µg/mL
